Measured values gathered from unrelated publications.
Numbered parts are unrelated; each lists some results of a single study.

Set 1
Target: Sal-like protein 4, full length isoform B (SALL4, Homo sapiens, UniProt Q9UJQ4-2, residues 1-616)
Method: universal PBM
Molecule type: double-stranded DNA, one strand shown
Matrix: in vitro
Concentration: not given
Setting: 8-mer, flanks averaged, mean of replicates
Reading: higher = stronger binding
Oligonucleotide | E-score
AGTAAACT | 0.2
CGAGCGAA | -0.197
ACGCCTAA | 0.0324
AATGAACT | 0.0677
TCTTTCCA | -0.0805
CAGTAACC | -0.106
AATTATCC | 0.297
GCGCGGGA | -0.224
GAGGCAGA | -0.14
AGGAATCG | -0.132
CGACCACA | -0.226
GAAAATGA | 0.199
GGAGGACC | -0.34
ATTTATTA | 0.438
ACCCTTCT | -0.00832
CATTCCAC | 0.0969
CTTACAGC | 0.0911
GTACCTCA | 0.0109
TAATAGAA | 0.349
CGGGTTTC | -0.229
GATCCACC | -0.178
AGCTGCCC | -0.247
CCACTGAC | -0.246

Set 2
Target: Centromere-binding protein 1, full length, N-terminal tag (CBF1, Saccharomyces cerevisiae, UniProt P17106, residues 1-351)
Sequence of UniProt P17106 (whole entry, looked up): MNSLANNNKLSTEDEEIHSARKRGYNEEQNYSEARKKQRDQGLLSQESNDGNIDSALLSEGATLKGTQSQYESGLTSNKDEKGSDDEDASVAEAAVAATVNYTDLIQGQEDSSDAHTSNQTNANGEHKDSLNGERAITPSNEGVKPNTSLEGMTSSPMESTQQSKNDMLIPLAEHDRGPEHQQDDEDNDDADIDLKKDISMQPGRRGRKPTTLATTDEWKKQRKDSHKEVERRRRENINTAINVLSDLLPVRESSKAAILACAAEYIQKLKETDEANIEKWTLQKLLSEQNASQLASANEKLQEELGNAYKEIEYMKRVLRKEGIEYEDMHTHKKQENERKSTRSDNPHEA
Method: protein-binding microarray
Molecule type: double-stranded DNA, one strand shown
Matrix: in vitro
Concentration: 0.8 µM
Setting: whole 60-bp probe, no competitor
Reading: higher = stronger binding
Oligonucleotide | fluorescence intensity [a.u.]
CTACCATCCTTTCTGCACATGTTACGCTGTTTATTCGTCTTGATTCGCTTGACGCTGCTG | 719
CTAAAATAACATACACACGTGTAAGAATATATATTCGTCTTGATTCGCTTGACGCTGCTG | 4750
CTAAAAGGTGGCAATCACGACTGAAAAGGGTACTTCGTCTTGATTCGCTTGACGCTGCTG | 544
CTAAGTTTGAAGAATAATCTGATGCTTTTTACATTCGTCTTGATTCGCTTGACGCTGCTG | 492
GAATTTTGCATTTGTCACACCACATATTTAAAATAGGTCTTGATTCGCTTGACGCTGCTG | 762
CTAAAAGGCCTTCACATGGTGATCCATCTTCTATTCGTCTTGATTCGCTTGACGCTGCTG | 563
GAACTGGTTTTGTGACACATGGAATAATATCATTAGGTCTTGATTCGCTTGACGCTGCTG | 670
CTAATTGCACGCCTCCTCGTGAGTAGTGACCGTTTCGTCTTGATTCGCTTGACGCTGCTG | 764
CTAAATGGTAATCAAAACGTGATCGCTTATATTTTCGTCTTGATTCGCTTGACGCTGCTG | 2530
GAATATTGTGATGCGCACGTTGAAATTCACTATTAGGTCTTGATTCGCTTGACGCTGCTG | 531
CCTAACTACTATAATGGTGATATATAGCTTCGTACAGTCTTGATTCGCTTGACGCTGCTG | 503
GAAGACATAGTTCACGCGGTAATTTTTTTTCGCTAGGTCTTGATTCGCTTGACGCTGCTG | 548
GAACCTTAAACGATGGACGTGGTGTGTGAATGTTAGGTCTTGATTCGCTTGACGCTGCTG | 538
TGTACGAAGCTATACCTGACCTATATAGTAGTTAGGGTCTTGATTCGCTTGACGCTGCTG | 528
GAAATTTACTAATATCACGATTATTCTTCATTCTAGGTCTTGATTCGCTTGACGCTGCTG | 539
TGTACGAAGCTATGTCACATGACTATAGTAGTTAGGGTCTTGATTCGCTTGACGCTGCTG | 7430
GAATCGTTATGGAGTCACGGCTTTGAGGGCGGGTAGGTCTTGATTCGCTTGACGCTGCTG | 556
CTAGTCTTACCCCGCCACGCGTTAATAGTGAGATTCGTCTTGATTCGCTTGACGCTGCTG | 493

Set 3
Target: RNA binding protein fox-1 homolog 2, RRM domain, GST-SBP tag (RBFOX2, Homo sapiens, UniProt O43251-10, residues 100-194)
Method: RNA Bind-n-Seq
Molecule type: RNA
Matrix: in vitro
Concentration: 365 nM
Setting: natural RNA segment, single round, ends assumed
Reference: no-protein control
Reading: higher = stronger binding
Target sequence (chain): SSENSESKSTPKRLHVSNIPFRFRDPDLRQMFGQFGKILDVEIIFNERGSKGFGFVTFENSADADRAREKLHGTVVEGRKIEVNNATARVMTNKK
Oligonucleotide | RBNS enrichment (R)
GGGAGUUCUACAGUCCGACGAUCCGCAGUUCUUCCUAUCAGCUUCAGUGACCCAGGGUCUGAACUGCCUCCAUCCUAGGGCAACCUGGGGCAGACAGGCCUGGUGGGGGGUGGGGAAACCUCCUUCCACCUGAUGGAAUUCUCGGGUGCCAA | 0.216
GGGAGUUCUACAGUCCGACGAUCCCCCUGCUGCUGCAGUGGUGUGAGUCGUUUCACGGCUGAUGUCCCUCGGGGGAUUAAAGGAUCUAAAGAGAAAAUGGCACCUGGUUGUCUUCGUGCUGUGUCUCAUGGGUUGGAAUUCUCGGGUGCCAA | 0.269
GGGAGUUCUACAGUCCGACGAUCGGCUAAGGAAAGACAUGUUUUUCUCUUUUAAAUCUCUGCAACUCCAAAGUAGACUCCUUCGAACGUAUUUAAUUUGGCCUUUUCAGCUUUCUUCUUGCCCAGCUCUGUCGUGGAAUUCUCGGGUGCCAA | 1.4
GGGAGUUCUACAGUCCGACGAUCCUUCCUCCAGAAGCCUCCUUACAUUAAAAAGCCUUACAGUUAUCCUGCAAGGGACAGGAAGGUCUGAUUUGCAGGAUUUUUAGAGCAUUAAAAUAACUAUCAGGCAGAAGUGGAAUUCUCGGGUGCCAA | 0.346
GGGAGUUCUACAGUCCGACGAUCUGUUUUAUUGCCACAGAAAUUCUCUUUAAGAUCUGAGCUCUCCUGGUAAGAGUCUUUAUUAAAGUUUUAAGUGUCUAAAGGGACUGUCCACGCCUGUACAUUUCAGAUGGUGGAAUUCUCGGGUGCCAA | 0.356
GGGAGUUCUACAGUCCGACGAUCUCCCAAGCCCGAGCAGAGGGUCAUGCGGGCCCCACAGGAGAAGCGGCCAGGGCCCGCGGGGGGCACCACCUGUGGACAGCCCUCCUGUCCCCAAGCUUUCAGGCAGGCACUGGAAUUCUCGGGUGCCAA | 0.185
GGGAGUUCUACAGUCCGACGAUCGGGCGUGCGGCUCAGAGGAGACCCUACGAACGCCUAAGAGCCAGGAUCCUCCCAGCCCCCAGCCCGCCACCCUUCCAGCACUCCUCUCUAGAACCGACGACCACACACCGUGGAAUUCUCGGGUGCCAA | 0.342
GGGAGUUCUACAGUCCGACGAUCUGAUGAAGAACUACUUAAAACUAACAGUUAAAAUCAGCUUGCCUCCCCUAGUAGAAGCAGGUUCUUGGAAGUUACAAUUUAAGGUACCCCCAAAAAGUUGGAAAUAAAAGUGGAAUUCUCGGGUGCCAA | 0.268
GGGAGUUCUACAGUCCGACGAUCCAGCUGAGGCCCAGGGCCUUGCUCCCUGGGAAAUUCUCUUCUCUCCAUCUUUCGGUGCAUUGGCCAUGUUACUGUGCCAAAGUGUCUUAAUUCUUGUCCCAUCUAUUCUCUGGAAUUCUCGGGUGCCAA | 0.308

Set 4
Target: Fragile X messenger ribonucleoprotein 1, C-terminal low-complexity region (Fmr1, Mus musculus, UniProt P35922)
Method: RNA Bind-n-Seq
Molecule type: RNA
Matrix: in vitro
Concentration: 200 nM
Setting: whole 134-nt RNA, ends assumed
Together with: 150 mM KCl
Reference: input library
Reading: higher = stronger binding
Oligonucleotide | log2 enrichment
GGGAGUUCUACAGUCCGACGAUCUGGGAGGUGGAUUUUGUUUAUUUAUUUAGCUCAUUUCCAGGGGUGGGAAUUUUUUUUUAAUAUGUGUCAUGAAUAAAGUUGUUUUUGAAAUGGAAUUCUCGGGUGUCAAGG | 0.18
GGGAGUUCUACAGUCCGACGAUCAAGUCCUGUGCUACACAUCGUAUGUACCGAAUCGGUUUUUUUGGAGGUUUUUUUGGAAAGUAUUAUGUUACGCCGUUCGGAUCUGCACUUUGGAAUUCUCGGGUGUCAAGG | -0.869
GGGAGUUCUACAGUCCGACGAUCGCAGGGAGUAAAAACAAAUGGAAAUGCUUCGGAUAGUGGCAGGGGUGGGGGUUGCUAAGGAAAGGGUGGGAUGGGAGUGGGUAAAGAGUUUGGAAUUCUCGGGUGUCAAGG | 0.387
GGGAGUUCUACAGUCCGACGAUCUAACUUUAGAGGAGGAUCUGAUGGAUAUGGCAGUGGACGUGGAUUUGGGGAUGGCUAUAAUGGGAAUGGAGGAGGACCUGGAGGUGGCAAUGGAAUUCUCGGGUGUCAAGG | 0.235
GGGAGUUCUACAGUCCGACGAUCAGUCCUGUGCUACACAUCGUAUGUACCGAAUCAAACCCAAAUUUUUAAACCCCCAAAAAAGUAUUAUGUUACGCCGUUCGGAUCUGCACUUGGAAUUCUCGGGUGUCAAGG | -0.182
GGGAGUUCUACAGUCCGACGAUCUGGCCCUGGUGGCAUGCGGGGAGGAAGAGGUGGCCUCAUGGAUCGUGGUGGUCCCGGUGGAAUGUUCAGAGGUGGCCGUGGUGGAGACACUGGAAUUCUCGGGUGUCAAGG | 0.0967
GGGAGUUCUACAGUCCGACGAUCCCUGUGCUACACAUCGUAUGUACCGAAUCGGGGAAAAAGGGGUUUUUUUGGGGUUUGGGGAAAGUAUUAUGUUACGCCGUUCGGAUCUGCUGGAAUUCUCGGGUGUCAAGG | 0.463
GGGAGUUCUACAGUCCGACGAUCCCUGUGCUACACAUCGUAUGUACCGAAUCGGUUUUUUGGGUUUUUUGGGGUUUUUUGGGGAAAGUAUUAUGUUACGCCGUUCGGAUCUGCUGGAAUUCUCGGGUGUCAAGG | -0.603
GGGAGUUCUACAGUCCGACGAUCUCAAGUCCUGUGCUACACAUCGUAUGUACCGAAUCGGGGAAAGGAAAGGAAAGGGAAAGUAUUAUGUUACGCCGUUCGGAUCUGCACUUCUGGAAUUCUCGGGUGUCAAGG | -0.465
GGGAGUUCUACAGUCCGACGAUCUGGCCCUGGUGGCAUGCGGGGAGGAAGAGGUGGCCUCAUGGAUCGUGGUGGUCCCAGUGGAAUGUUCAGAGGUGGCCGUGGUGGAGACAGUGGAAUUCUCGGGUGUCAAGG | -0.266

A few entries again (set 2):
Oligonucleotide | fluorescence intensity [a.u.]
GAAGACATAGTTCACGCGGTAATTTTTTTTCGCTAGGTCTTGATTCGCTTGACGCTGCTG | 548
GAACCTTAAACGATGGACGTGGTGTGTGAATGTTAGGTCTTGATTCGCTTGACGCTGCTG | 538
TGTACGAAGCTATACCTGACCTATATAGTAGTTAGGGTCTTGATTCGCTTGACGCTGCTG | 528
GAAATTTACTAATATCACGATTATTCTTCATTCTAGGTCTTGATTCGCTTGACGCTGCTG | 539
TGTACGAAGCTATGTCACATGACTATAGTAGTTAGGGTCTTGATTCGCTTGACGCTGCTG | 7430
GAATCGTTATGGAGTCACGGCTTTGAGGGCGGGTAGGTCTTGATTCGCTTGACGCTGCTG | 556
